Assay results of several laboratories.
Every numbered part comes from another study and shows a few of its results, in no order. Numbers after ± are the reported error.

Series 1
Target: Sal-like protein 4, full length isoform A (SALL4, Homo sapiens, UniProt Q9UJQ4, residues 1-1053)
Chain of UniProt Q9UJQ4 (whole entry, looked up): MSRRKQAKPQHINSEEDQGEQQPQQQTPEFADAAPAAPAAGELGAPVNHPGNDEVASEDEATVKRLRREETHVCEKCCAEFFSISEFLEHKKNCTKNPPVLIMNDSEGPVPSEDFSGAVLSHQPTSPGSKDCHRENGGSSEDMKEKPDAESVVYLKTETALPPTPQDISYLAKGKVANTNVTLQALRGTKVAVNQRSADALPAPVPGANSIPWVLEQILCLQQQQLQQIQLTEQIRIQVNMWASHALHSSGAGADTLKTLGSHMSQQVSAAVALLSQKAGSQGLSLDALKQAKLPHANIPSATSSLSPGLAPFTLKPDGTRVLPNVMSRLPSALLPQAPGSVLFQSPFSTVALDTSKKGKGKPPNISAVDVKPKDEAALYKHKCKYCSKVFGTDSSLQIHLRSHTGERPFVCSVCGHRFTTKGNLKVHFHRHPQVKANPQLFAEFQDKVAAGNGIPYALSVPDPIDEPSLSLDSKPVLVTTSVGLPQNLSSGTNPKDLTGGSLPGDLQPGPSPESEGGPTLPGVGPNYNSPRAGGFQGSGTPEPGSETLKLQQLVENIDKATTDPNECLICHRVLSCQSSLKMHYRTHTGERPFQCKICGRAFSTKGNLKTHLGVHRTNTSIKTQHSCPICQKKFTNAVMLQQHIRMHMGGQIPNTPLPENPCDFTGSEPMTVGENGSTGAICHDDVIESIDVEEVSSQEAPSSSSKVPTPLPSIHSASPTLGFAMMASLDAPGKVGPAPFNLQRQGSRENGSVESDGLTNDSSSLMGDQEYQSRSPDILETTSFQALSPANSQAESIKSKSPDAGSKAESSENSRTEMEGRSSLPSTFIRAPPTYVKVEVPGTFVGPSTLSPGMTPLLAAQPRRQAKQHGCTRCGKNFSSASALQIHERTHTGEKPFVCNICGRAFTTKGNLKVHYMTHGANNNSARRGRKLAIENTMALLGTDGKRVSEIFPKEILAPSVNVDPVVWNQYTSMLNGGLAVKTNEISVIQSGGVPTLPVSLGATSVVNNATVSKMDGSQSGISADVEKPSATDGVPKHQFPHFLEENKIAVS
Technique: universal PBM
Molecule type: double-stranded DNA, one strand shown
Sample: in vitro
Tested at: 600 nM
Setting: 8-mer, flanks averaged, mean of replicates
Direction: higher = stronger binding
Endpoint: E-score
CAGTCTTA: 0.0741
AGTCGGGA: -0.189
CTTTAGGC: -0.133
ATGAGGGC: -0.166
TAAATGCA: 0.282
CAGCGGTA: -0.0451
AGATGCTA: 0.174
CGCCAAAG: -0.211

Series 2
Target: Runt-related transcription factor 1, full length (RUNX1, Homo sapiens, UniProt Q01196-8, residues 1-480)
Technique: protein-binding microarray
Molecule type: hairpin DNA
Sample: in vitro
Tested at: not given
Setting: whole hairpin DNA, median over replicate spots
Baseline: not given
Direction: higher = stronger binding
Endpoint: median fluorescence
GAGGCCTCGCGCGGTTGGCCTCCTGGCCAACCGCGCGAGGCCTCACACTC: 2140 a.u.
GAGGCCTGTCGGGGTTGGCCTCCTGGCCAACCCCGACAGGCCTCACACTC (5mC at 33): 1880 a.u.
GAGGCCCAACCGCACGAGCCTCCTGGCTCGTGCGGTTGGGCCTCACACTC (5mC at 15 29): 3260 a.u.
GAGGCCTGTCGTGGTTGGCCTCCTGGCCAACCACGACAGGCCTCACACTC: 2030 a.u.
GAGGCCCAACCGCACGAGCCTCCTGGCTCGTGCGGTTGGGCCTCACACTC (5mC at 29): 3930 a.u.
GAGGCCCCACCGCAACAGCCTCCTGGCTGTTGCGGTGGGGCCTCACACTC (5mC at 8): 3050 a.u.
GAGGCCTGTCGCTGTTGGCCTCCTGGCCAACAGCGACAGGCCTCACACTC: 1680 a.u.
GAGGCCCAACCGCACGAGCCTCCTGGCTCGTGCGGTTGGGCCTCACACTC (5mC at 15): 3270 a.u.

Series 3
Target: Replicase polyprotein 1ab, polymerase (rep, Severe acute respiratory syndrome coronavirus 2, UniProt P0DTD1)
Read-out: enzyme activity
Mode: inhibitor
Tested at: 20 µM
Endpoint: inhibition
Cc1cc(C)c(CNC(=O)c2cc(-c3ccc(CN4CCOCC4)cc3)cc3c2cnn3C2CCCC2)c(=O)[nH]1: -4.58%
c1ccc(C2CNCc3ccccc32)cc1 (centres unmarked): -14.3%
C[C@H](N)C(=O)N[C@@H](C)P(=O)(O)O: 2.48%
CCCCC[C@H](O)/C=C/[C@@H]1[C@H]2C/C(=C/CCCC(=O)O)O[C@H]2C[C@H]1O: -0.27%
CC[C@H](Nc1ncnc2[nH]cnc12)c1nc2cccc(F)c2c(=O)n1-c1ccccc1: -0.5%
COc1cccc(N(C)C(=S)Oc2ccc3c(c2)CCCC3)n1: -3.35%
CC1=C(CC(=O)O)c2cc(F)ccc2/C1=C\c1ccc(S(C)(=O)=O)cc1: -1.73%
O=C(O)c1cc(O)c(O)c(O)c1: -3.6%
CCCCCCCCc1ccc(-c2ccc(C(=O)O)cc2)cc1: -0.52%
Cc1nnc(-c2ccc3occ(-c4ccc([S+](C)[O-])cc4)c3c2)o1 (centres unmarked): -12.4%
O=C1[C@@H]2[C@H]3CC[C@H](C3)[C@@H]2C(=O)N1CCCCN1CCN(c2ncccn2)CC1: 1.3%
COc1cccc2cc(-c3nc([C@H]4CC[C@H](C(=O)O)CC4)n4ncnc(N)c34)[nH]c12: -7.42%
N#C/C(=C\c1cn(-c2ccccc2)c2ccccc12)C(=O)O: 1.28%
O=C(/C=C/c1ccc(O)c(O)c1)c1ccc(O)cc1O: 48.9%
COc1cc2ncn(-c3cc(OCc4ccccc4C(F)(F)F)c(C(N)=O)s3)c2cc1OC: -1.62%
CCN(CC)CCOCCOC(=O)C1(c2ccccc2)CCCC1: 19.5%
Cc1ccc(S(N)(=O)=O)cc1: 0.73%
Cc1ccc(C(=O)Nc2ccc(CN3CCN(C)CC3)c(C(F)(F)F)c2)cc1C#Cc1cnc2cccnn12: -1.03%
CC(C)OC(=O)[C@H](C)N[P@](=O)(CO[C@H](C)Cn1cnc2c(N)ncnc21)Oc1ccccc1: -3.89%
CCCN(CCC)C1CCc2cccc(O)c2C1 (centres unmarked): -2.59%
CCOc1ccc(NC(C)=O)cc1: 4.13%
COc1cc(/C=C/C(N)=O)cc(OC)c1OC: -0.16%
CC(OC(=O)OC1CCCCC1)OC(=O)C1=C(CSc2nnnn2CCN(C)C)CS[C@@H]2[C@H](NC(=O)Cc3csc(N)n3)C(=O)N12 (some centres unmarked): 2.42%
C#C[C@]1(O)CC[C@H]2[C@@H]3CCC4=CC(=O)CC[C@@H]4[C@H]3CC[C@@]21C: 0.67%
Oc1cc2c(cc1O)[C@H]1c3ccccc3CN[C@@H]1CC2 (racemic): -14.9%

Further values, each from its own experiment
CAMK2A: Calcium/calmodulin-dependent protein kinase type II subunit alpha (CAMK2A, Homo sapiens, UniProt Q9UQM7)
Chain of UniProt Q9UQM7 (whole entry, looked up): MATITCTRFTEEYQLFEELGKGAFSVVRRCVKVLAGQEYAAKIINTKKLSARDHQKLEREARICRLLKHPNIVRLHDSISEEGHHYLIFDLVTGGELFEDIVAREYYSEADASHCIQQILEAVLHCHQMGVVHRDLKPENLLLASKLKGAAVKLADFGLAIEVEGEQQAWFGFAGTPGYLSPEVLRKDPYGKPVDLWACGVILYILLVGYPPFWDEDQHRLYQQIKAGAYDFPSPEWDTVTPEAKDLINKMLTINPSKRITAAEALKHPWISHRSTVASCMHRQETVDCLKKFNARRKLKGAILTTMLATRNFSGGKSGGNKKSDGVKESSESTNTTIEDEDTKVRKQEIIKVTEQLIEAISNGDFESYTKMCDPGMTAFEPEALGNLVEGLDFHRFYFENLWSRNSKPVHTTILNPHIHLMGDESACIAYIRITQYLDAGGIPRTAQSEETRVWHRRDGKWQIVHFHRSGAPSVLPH
Fc1ccccc1Cc1nc(-c2nc(C(F)(F)F)n[nH]2)cn2ccnc12 — smooth pursuit eye movements (healthy volunteers; 1 mg, single ascending dose; baseline: placebo): -0.66%
CC(C)(C)NC[C@H](O)COc1nsnc1N1CCOCC1 — GFP-positive cells (HEK-293T; pseudovirus infection, FDA-approved drug library screen; VSV pseudotyped with SARS-CoV-2 spike; 10 µM, 16 h; baseline: vehicle-treated): 123%
C[C@H]1O[C@@H](O[C@H]2[C@@H](O)C[C@H](O[C@H]3[C@@H](O)C[C@H](O[C@H]4CC[C@@]5(C)[C@H](CC[C@@H]6[C@@H]5CC[C@]5(C)[C@@H](C7=CC(=O)OC7)CC[C@]65O)C4)O[C@@H]3C)O[C@@H]2C)C[C@H](O)[C@@H]1O — nuclear SOX9 intensity (mouse MPNST tumor cells; high-content immunofluorescence imaging, measured: nuclear SOX9; 10 µM, 12 h, mean of 2 replicates; baseline: DMSO control, higher = more nuclear SOX9): 122 % of DMSO
COC(=O)Nc1c(N)nc(-c2nn(Cc3ccccc3F)c3ncc(F)cc23)nc1N — AUC (human, plasma; oral, 2.5 mg single dose, alone, geometric mean): 1580 ng·h/mL
COC(=O)Nc1c(N)nc(-c2nn(Cc3ccccc3F)c3ncc(F)cc23)nc1N — inhibition (CAMK2A; enzyme activity, inhibitor; 10 µM): -15%
COc1ccc2[nH]c([S+]([O-])Cc3ncc(C)c(OC)c3C)nc2n1 (centres unmarked) — inhibition (Replicase polyprotein 1ab, main protease (rep, Severe acute respiratory syndrome coronavirus 2, UniProt P0DTD1); enzyme activity, inhibitor; 20 µM, hit confirmation): 90.2%
CC(C)n1cnc(-c2ccc(F)cc2)c1-c1ncc(C(=O)Nc2ccc(N3CCN(C)CC3)cc2)[nH]1 — patients with injury TEAE (phase 2a clinical trial; patients with idiopathic pulmonary fibrosis; 30 mg once daily, all grades, SOC injury, poisoning, procedural complications): 0%
OC[C@H]1O[C@@H](O[C@@H]2[C@@H](O)[C@H](O[C@@H]3[C@@H](O)[C@H](O[C@@H]4[C@@H](O)[C@H](O[C@H]5[C@H](O)[C@@H](CO)OC(O)[C@@H]5O)O[C@H](CO)[C@H]4O)O[C@H](CO)[C@H]3O)O[C@H](CO)[C@H]2O)[C@H](O)[C@@H](O)[C@@H]1O (some centres unmarked) — ΔG (uncharacterized protein (Bacteroides thetaiotaomicron, UniProt A0A173VPY3); ITC; pH 7.0, 25 °C): -21 kcal/mol
Cc1c(S(=O)(=O)N2CCc3[nH]ncc3C2)cc(C(=O)NCc2cccnc2N2CCCC2)n1C — IC50 (Replicase polyprotein 1ab, nsp14 (rep, Severe acute respiratory syndrome coronavirus 2, UniProt P0DTD1); inhibitor): 0.2 nM
O=C(C1=NN(C2CCS(=O)(=O)C2)C(=O)CC1)N1CCN(C/C=C/c2ccccc2)CC1 (centres unmarked) — remaining compound (mouse, microsomes or S9; 2 µM, 0.5 h): 14.3%
C[C@H]1O[C@@H](O[C@H]2[C@@H](O)C[C@H](O[C@H]3[C@@H](O)C[C@H](O[C@H]4CC[C@@]5(C)[C@H](CC[C@@H]6[C@@H]5CC[C@]5(C)[C@@H](C7=CC(=O)OC7)CC[C@]65O)C4)O[C@@H]3C)O[C@@H]2C)C[C@H](O)[C@@H]1O — inhibition (CAMK2A; enzyme activity, inhibitor; 10 µM): -3%
C[C@H]1O[C@@H](O[C@H]2[C@@H](O)C[C@H](O[C@H]3[C@@H](O)C[C@H](O[C@H]4CC[C@@]5(C)[C@H](CC[C@@H]6[C@@H]5CC[C@]5(C)[C@@H](C7=CC(=O)OC7)CC[C@]65O)C4)O[C@@H]3C)O[C@@H]2C)C[C@H](O)[C@@H]1O — IC50 (transmissible gastroenteritis virus; viral replication, immunofluorescence; ST cells; 6 h post-infection, pretreated 1 h): 373 ± 32 nM

Some of these lines once more (series 3):
CCN(CC)CCOCCOC(=O)C1(c2ccccc2)CCCC1: 19.5%
CCCCC[C@H](O)/C=C/[C@@H]1[C@H]2C/C(=C/CCCC(=O)O)O[C@H]2C[C@H]1O: -0.27%
c1ccc(C2CNCc3ccccc32)cc1 (centres unmarked): -14.3%
Cc1cc(C)c(CNC(=O)c2cc(-c3ccc(CN4CCOCC4)cc3)cc3c2cnn3C2CCCC2)c(=O)[nH]1: -4.58%
O=C1[C@@H]2[C@H]3CC[C@H](C3)[C@@H]2C(=O)N1CCCCN1CCN(c2ncccn2)CC1: 1.3%
Cc1ccc(C(=O)Nc2ccc(CN3CCN(C)CC3)c(C(F)(F)F)c2)cc1C#Cc1cnc2cccnn12: -1.03%
